# Published values pooled from the literature.
# Every numbered part comes from another study and shows a few of its results, in no order.

# Sample 1
# Target: Histone acetyltransferase KAT6A, both winged helices, GST fusion (KAT6A, Homo sapiens, UniProt Q92794, residues 1-181)
# Technique: protein binding microarray
# Molecule type: double-stranded DNA, one strand shown
# Medium: in vitro
# Concentration: not given
# Setting: 8-mer, flanks averaged, mean of 2 arrays, mostly near background
# Baseline: not given
# Reading: higher = stronger binding
# Target sequence (chain): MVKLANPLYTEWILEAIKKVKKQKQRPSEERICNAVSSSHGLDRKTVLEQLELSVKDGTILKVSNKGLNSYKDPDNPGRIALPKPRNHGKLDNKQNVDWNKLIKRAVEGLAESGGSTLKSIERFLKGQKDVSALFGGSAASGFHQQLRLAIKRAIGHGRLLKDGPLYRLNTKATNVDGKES
Oligonucleotide,E-score
CAAAAGGA,-0.0742
CAGTCCCG,0.139
CGATCTGA,-0.189
CGGATGAA,0.0868
GATAATGA,-0.088
TAGAAGGA,-0.0184
TAATACCA,-0.0866
GCCCTAAC,-0.00762

# Sample 2
# Target: Sox, HMG box (Pigoraptor chileana)
# Technique: Spec-seq
# Molecule type: double-stranded DNA, one strand shown
# Medium: in vitro
# Concentration: not given
# Setting: whole probe, mean of replicates
# Baseline: not given
# Reading: lower = stronger binding
# Constant ends, left off below: GAGTCGTCTCGTCAGCAC … TCCGTAGAGCACTCAGGTC
# Target sequence (chain): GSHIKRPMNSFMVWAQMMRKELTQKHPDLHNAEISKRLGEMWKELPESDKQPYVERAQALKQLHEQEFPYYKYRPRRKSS
Oligonucleotide,relative binding energy [ln ratio]
CATTCA,-0.744
CTCTGT,-1.27
TTCTGT,-1.24
CATCCA,0.349
AGGAGT,0.773

# Sample 3
# Target: Centromere-binding protein 1, full length, His-tagged (CBF1, Saccharomyces cerevisiae, UniProt P17106, residues 1-351)
# Chain of UniProt P17106 (whole entry, looked up): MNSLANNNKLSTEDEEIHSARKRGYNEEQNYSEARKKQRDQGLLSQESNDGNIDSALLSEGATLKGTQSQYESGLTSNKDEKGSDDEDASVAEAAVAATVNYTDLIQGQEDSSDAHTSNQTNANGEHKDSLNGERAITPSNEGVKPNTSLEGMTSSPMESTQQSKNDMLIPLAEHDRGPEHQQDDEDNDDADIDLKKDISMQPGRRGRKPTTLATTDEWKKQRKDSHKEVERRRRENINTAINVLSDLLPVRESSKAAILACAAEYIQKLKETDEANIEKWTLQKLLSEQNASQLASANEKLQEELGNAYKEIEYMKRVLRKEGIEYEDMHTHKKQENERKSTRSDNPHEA
# Technique: competition protein-binding microarray
# Molecule type: double-stranded DNA, one strand shown
# Medium: in vitro
# Concentration: 2 µM
# Setting: whole 60-bp probe, lowest competitor level
# Together with: Pho4 competitor, 0.05 µM
# Reading: higher = stronger binding
Oligonucleotide,fluorescence intensity [a.u.]
TGCGCAACAACTTGTGGGGTGGGTGTATGTCTAGAAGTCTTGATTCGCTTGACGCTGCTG,70.5
AACGGCGTCCGCAGAACCGTGACGGAATCTGCGGTTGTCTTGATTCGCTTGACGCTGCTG,70.4
GACGACAACAACTGTCATGTGGAAGATAGCCAAAATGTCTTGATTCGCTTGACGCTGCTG,176
TACCCCATAATTTTGCACGTGACGGGTTTGTATTACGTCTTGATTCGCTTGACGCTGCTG,8710
AAATTACTAAGTTGCTATGTGGGTGACGCCGTATGAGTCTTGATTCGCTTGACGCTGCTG,72.3
CCAAGGGATTACCATCACGTAAGACTCTTGATCCTTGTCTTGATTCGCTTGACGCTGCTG,67.3
ATGTTAGCCTTTCACCACGTTCAGCAACCTTGTTGAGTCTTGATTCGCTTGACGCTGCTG,77.7

# Further values, each from its own experiment
Molecule,target,test,test system,conditions,scale,endpoint,value
"PhoQ, residues 284 288 289 292 302 303 SLSVQF","PhoP, residues 12 14 15 18 19 SQCLL (Escherichia coli, UniProt P23836)","Sort-seq, measured: YFP reporter",E. coli,"PhoQ-PhoP variant library, together with: 10 µM Mg2+","baseline: high Mg2+ state, higher = stronger signaling",fold induction,64
